Published values collected from several papers.
Parts stem from different laboratories: compare values within a part only. Positions count from the first letter of the parent shown.
Chain of UniProt Q9FX25 (whole entry, looked up): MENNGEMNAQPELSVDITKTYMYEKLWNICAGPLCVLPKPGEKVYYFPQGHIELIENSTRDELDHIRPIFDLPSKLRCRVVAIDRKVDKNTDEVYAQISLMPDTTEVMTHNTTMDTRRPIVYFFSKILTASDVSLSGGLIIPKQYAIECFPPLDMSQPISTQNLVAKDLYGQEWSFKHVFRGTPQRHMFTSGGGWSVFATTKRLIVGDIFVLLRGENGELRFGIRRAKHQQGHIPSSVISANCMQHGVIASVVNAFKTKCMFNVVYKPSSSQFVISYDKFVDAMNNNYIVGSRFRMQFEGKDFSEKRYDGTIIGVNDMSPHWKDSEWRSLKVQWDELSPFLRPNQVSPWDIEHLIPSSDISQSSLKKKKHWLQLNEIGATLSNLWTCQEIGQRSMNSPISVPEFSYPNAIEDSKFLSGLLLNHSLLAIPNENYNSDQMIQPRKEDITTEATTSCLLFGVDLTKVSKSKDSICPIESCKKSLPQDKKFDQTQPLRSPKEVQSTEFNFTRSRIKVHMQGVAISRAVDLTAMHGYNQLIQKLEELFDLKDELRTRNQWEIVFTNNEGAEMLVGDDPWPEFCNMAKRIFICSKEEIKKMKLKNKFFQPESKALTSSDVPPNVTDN
Chain of UniProt Q9SKN5 (whole entry, looked up): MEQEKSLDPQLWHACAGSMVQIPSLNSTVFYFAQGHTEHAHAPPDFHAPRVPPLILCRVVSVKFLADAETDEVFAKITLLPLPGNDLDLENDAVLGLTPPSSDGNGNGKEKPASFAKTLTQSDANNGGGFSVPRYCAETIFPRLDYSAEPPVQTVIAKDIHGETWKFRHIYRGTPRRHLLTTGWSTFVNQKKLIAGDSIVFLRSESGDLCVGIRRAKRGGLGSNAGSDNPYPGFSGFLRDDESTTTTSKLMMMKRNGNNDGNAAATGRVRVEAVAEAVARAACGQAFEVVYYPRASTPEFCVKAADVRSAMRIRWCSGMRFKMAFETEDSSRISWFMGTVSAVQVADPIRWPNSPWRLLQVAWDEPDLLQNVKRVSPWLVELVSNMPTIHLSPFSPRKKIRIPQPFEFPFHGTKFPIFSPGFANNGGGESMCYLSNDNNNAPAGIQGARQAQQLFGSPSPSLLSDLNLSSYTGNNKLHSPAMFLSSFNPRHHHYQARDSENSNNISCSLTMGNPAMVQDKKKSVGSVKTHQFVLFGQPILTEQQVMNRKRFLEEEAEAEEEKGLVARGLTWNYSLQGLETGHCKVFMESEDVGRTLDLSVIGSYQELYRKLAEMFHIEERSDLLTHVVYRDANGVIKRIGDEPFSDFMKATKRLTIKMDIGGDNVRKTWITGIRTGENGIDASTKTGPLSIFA
Chain of UniProt Q9M1R4 (whole entry, looked up): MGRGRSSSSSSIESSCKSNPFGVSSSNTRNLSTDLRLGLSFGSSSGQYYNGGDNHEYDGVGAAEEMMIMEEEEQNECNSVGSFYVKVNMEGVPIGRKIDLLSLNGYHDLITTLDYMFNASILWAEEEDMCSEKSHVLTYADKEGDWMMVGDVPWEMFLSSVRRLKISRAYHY
Chain of UniProt Q38829 (whole entry, looked up): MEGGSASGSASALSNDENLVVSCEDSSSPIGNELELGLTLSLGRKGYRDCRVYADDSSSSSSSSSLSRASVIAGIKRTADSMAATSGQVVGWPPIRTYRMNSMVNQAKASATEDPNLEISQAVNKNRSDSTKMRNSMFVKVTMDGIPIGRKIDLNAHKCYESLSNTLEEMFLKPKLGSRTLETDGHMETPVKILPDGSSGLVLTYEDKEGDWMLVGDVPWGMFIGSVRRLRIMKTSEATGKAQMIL
Chain of UniProt P93022 (whole entry, looked up): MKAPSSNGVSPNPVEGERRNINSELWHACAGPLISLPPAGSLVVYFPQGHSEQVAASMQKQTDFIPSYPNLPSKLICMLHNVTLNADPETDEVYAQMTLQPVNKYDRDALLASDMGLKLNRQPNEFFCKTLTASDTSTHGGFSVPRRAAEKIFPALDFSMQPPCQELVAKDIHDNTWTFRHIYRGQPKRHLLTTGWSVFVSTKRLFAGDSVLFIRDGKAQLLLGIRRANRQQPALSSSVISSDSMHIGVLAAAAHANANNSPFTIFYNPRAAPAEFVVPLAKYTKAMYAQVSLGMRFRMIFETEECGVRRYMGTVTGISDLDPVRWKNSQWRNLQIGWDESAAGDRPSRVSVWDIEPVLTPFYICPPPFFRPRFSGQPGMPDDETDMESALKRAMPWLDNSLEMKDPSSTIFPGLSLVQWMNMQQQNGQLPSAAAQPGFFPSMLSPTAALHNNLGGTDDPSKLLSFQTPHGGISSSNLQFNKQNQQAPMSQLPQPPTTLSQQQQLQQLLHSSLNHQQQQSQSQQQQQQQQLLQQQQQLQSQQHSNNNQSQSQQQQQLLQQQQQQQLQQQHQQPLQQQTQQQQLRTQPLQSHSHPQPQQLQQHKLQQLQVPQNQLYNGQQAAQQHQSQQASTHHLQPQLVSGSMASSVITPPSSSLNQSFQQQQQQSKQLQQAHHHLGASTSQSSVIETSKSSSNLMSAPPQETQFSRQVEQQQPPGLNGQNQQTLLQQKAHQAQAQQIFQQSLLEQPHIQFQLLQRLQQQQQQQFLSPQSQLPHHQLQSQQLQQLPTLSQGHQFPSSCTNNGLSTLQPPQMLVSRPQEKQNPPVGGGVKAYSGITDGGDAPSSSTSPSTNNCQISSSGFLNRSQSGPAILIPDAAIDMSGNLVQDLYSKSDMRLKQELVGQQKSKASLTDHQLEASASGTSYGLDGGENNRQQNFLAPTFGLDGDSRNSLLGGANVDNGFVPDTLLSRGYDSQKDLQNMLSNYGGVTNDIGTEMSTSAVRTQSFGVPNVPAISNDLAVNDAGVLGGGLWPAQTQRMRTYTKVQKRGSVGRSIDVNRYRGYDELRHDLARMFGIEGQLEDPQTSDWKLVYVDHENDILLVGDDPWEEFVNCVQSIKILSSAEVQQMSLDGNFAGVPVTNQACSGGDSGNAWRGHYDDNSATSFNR
Chain of UniProt Q9FKM7 (whole entry, looked up): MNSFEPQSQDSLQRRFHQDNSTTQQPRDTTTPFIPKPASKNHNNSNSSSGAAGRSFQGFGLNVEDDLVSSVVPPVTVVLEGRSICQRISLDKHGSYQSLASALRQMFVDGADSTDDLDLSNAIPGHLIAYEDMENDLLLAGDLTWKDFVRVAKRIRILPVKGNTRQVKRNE

Study 1
Target: Interferon regulatory factor 5, full length, phosphomimetic (IRF5, Homo sapiens, UniProt Q13568-2, residues 1-514, S451D/S453D/S456D/S462D)
Technique: protein-binding microarray
Form: double-stranded DNA, one strand shown
Matrix: in vitro
Concentration: 940 nM top
Notes: 60-bp whole probe
Added: salmon DNA 0.4 mg/ml
Baseline: random background probes
Reading: higher = stronger binding
Endpoint: fitted relative affinity
Constant ends, left off below: GCCTAGCAC … GTCTTGATTCGCTTGACGCTGCTG
GACGATCTCAGACTGCAGACGTGCTAG: -0.495 z-score
TTAGGTTTCCTTCTCCTTAAGTGCTAG: 2.49 z-score
TTAAATCTCAGACTGGATTAGTGCTAG: -0.317 z-score
TTAGGTATCGACTGTCGGTTAGTGCTA: 6.03 z-score
GTCGGTATCGACACTGGGGACGTGCTA: 4.67 z-score
TCAGTACTTTCTATCTCACTGTGCTAG: 2.45 z-score
TGCTTTTTAGAAATTTTTTTTGTGCTA: 0.562 z-score
AGTATGTTCACTATTTAAGGGTGCTAG: -0.133 z-score
TTCAGTTTTCCTATGTCATTGTGCTAG: 1.6 z-score
GACGGTTCCCTTTGCCTGACGTGCTAG: 0.33 z-score
TCATTTTTTTTTGTATTACTGTGCTAG: 1.66 z-score
GAAGATTTCAGTATCGAGACGTGCTAG: 2.44 z-score
TTAGAACTGGGTTTTCGATTAGTGCTA: 0.91 z-score
GGCGGTTTCGGACTGGGGACGTGCTAG: 7.04 z-score
TTAGGTTTCAGTTTCGATTAGTGCTAG: 11.4 z-score
GTAGGACTGCTTATCCTTTAGTGCTAG: -0.422 z-score
TTCGGACTGCTACTGCTTTAGTGCTAG: -0.405 z-score
TTAGGACTGCTTATTCTTTAGTGCTAG: -0.0115 z-score
GACGGACTGGGTTTCGCGACGTGCTAG: 0.153 z-score
GACGGTATCGGGACTGGGGGCGTGCTA: 5.15 z-score
CCAGTTCTGGGAAATATTTACGTGCTA: -0.0699 z-score

Study 2
Target: RING finger protein unkempt homolog, zinc fingers 1-6, GST-SBP tag (UNK, Homo sapiens, UniProt Q9C0B0, residues 30-357)
Chain of UniProt Q9C0B0 (30-357, looked up): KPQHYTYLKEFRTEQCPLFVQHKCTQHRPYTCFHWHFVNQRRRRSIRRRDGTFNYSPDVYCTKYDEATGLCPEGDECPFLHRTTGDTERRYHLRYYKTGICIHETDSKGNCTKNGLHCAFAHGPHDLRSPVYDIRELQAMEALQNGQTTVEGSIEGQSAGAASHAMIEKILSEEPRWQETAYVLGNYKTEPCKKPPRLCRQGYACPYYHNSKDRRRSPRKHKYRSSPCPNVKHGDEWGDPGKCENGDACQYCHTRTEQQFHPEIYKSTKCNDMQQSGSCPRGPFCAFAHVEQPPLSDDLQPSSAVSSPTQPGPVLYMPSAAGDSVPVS
Technique: RNA Bind-n-Seq
Form: RNA
Matrix: in vitro
Concentration: not given
Notes: RNA with constant flanks, human-mouse chimeric sites, ends assumed
Baseline: input RNA pool
Reading: higher = stronger binding
Endpoint: bound/input enrichment
Constant ends, left off below: GGGAGUUCUACAGUCCGACGAUC … CAACAGAGGAUUGAGCAUCA
ACCUCCCCCUCCCGCCUCACCCCACCCCCGCUUUUUGGAAAGUUUUUGGCGUUUCUUUUCCUUCCCCAUACAAAGUGAUUACAGUUUAGAGUCUAUGGGUCUAUCGAAGGGCUUGACGGA: 1.32 ratio
GUCAACAGCUGCCUCAACCCCAUCCUCUAUGCUUUCUUGGAUGAGAACUUCAAGGCCUGCUUCCGCAAGUUCUGCUGUGCAUCUGCCCUGCGCCGGGAGAUGCAGGUGUCUGACCGCGUG: 0.297 ratio
GAAAGAGAAGCUAAAACACUAAUAGAGAAGAGGAUUGGCAAAGAGAAUUUCAUAGAGAAACUAGGAUUUAUUAGCAAACAUGAGUUAUAUUCCAGAGCGUCUCAGAAACCCCAGCCAAAC: 5.85 ratio
UUAAUCCCCUUUACUGCUCCCCCACUUCUCAUGGUAAUAACAAAGUCUUAUAUCCCCAUAUUAGCUUUUACUCAGAUGGCUUAUGGAGCCGGUUUCCUAGCUUUCUUGGGAGGGAUCAGA: 0.768 ratio
CAGACUGUGUCAUACUUUUUAGACAUUCACAUCAGACUUACAGAGCACCUGGCCACAUUCUAGGUUUGAAUUAUUUCUCAGCUAUGGAUAUGAUCAAAUGAGAACACUGCUUAACUAAUG: 0.762 ratio
GGCCUGGACCUUCCUGGGGCUAGUACAAAUAGCGGCAGUGGAGGCUCGAGAGGAAAGUUGUUAGUGGGAGGCAGUGGUAGAGGCCGUCAUGUACGGUCCUUUACUCGAUAGAUGUGUUCU: 0.29 ratio
AACAGAUUUCUCAAGCACAUUCCAAGCGAGAAUGCUGGGGUGAUCAUUGUUGCCCAUGUGCCUUCUGACUGAGCUUUAAUGCUGUUCCAUGUUACAUCUUUCCUUCACUCCAGAAUUGUU: 0.156 ratio
ACCUCCCCCUCCCGCCUCACCCCACCCCCGCUUUUUGGAAAGUUUUUGGCUUUUUUUUUCCUUCCCCAUACAAAGUGGUUUUUACCACCCCCGCAAGGGUCUAUCGAAGGGCUUGACGGA: 0.672 ratio
GUACUGCAGCAGCAGGGAAAACUGCAGGAAGCUCUGAUGCAUUAUAAGGAGGCUAUUCGAAUUAGUCCUACCUUUGCUGAUGCCUACUCCAAUAUGGGAAACACUCUAAAGGAGAUGCAG: 0.154 ratio
UACUACUAUGAUGGUGAUAUUGGCAAUUAUUAUUAUGGCCAGGGUCAUCCCAUGAAGCCUCAUAGAAUCCGGAUGACUCAUAACUUGCUGUUAAAUUAUGGUUUAUACCGAAAAAUGGAA: 0.172 ratio
AGAGAAAUGAGAAAGAAUCUUACACAAGAAGAGAUGCAAAGAAUGUCUACUAGAGUCCUUUUGGCGACUCUUUCCAUUCCUAUUACUCCUGAGCGUACGGAUAUUGCUCGACUUUUGGAU: 0.125 ratio

Study 3
Target: CCNE2, cyclin fold, Cln2 fusion (human)
Technique: yeast growth competition, sequencing
Matrix: yeast
Notes: weak parent motif
Baseline: not given
Reading: higher = stronger binding
Endpoint: normalised enrichment score
Starting sequence: MICAL3 docking peptide (human); LQLRRQLSFSEDS
LQVRRQLSFSEDS [L3V]: 3.34
LQLRRQLQFSEDS [S8Q]: 0.532
LQLRRQYSFSEDS [L7Y]: 0.293
LQLRRQLSFSFDS [E11F]: 0.316
LILRRQLSFSEDS [Q2I]: -0.00944
LQLRKQLSFSEDS [R5K]: 0.219
LQLRRQLSYSEDS [F9Y]: 0.071
LQLRRQLSFFEDS [S10F]: 0.537
LQLHRQLSFSEDS [R4H]: -0.0342
LQLRRQLSFSEPS [D12P]: 0.852
LQLRRQLSFNEDS [S10N]: 0.266
LQLGRQLSFSEDS [R4G]: 0.174
LQLRRKLSFSEDS [Q6K]: 0.422
LQARRQLSFSEDS [L3A]: 2.11
LQLRRQLVFSEDS [S8V]: 0.444
LQLRRQLSVSEDS [F9V]: -0.114
LQLRRQLSFEEDS [S10E]: 0.377
LQLRRQLSFYEDS [S10Y]: 0.596
LQLRRQLIFSEDS [S8I]: 0.7
LQLRRQHSFSEDS [L7H]: 0.283
LQLRRQLKFSEDS [S8K]: 0.423
LLLRRQLSFSEDS [Q2L]: 0.272
LQLNRQLSFSEDS [R4N]: 0.0568
LQLRYQLSFSEDS [R5Y]: 0.393
LQLTRQLSFSEDS [R4T]: -0.0387

Study 4
Target: ABI1, truncated, D143A, DHFR fusion (Arabidopsis thaliana)
Technique: DHFR PCA, deep sequencing
Matrix: yeast
Notes: methotrexate growth selection, single substitutions
Added: (+)-ABA 0.39 µM
Baseline: wild-type fitted maximum
Reading: higher = stronger binding
Endpoint: relative binding score
Starting sequence: PYL1, truncated, DHFR fusion (Arabidopsis thaliana); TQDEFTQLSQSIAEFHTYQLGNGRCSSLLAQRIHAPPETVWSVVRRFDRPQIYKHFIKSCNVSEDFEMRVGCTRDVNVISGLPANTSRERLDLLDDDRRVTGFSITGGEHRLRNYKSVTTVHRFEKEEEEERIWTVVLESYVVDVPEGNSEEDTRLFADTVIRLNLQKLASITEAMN; partner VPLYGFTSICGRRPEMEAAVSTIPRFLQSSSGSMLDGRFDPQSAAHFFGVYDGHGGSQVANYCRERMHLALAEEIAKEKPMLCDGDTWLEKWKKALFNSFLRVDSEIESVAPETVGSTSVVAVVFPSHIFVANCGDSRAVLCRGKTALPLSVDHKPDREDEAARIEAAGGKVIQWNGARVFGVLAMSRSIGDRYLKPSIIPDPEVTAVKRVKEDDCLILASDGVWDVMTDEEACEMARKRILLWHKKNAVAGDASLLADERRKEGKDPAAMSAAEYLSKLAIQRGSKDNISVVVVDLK
L28C: 17.2%
Q51S: -2.08%
S26D: -17%
A175G: 50.3%
S59C: 10.6%
E139M: 0.777%
N165C: 7.14%
R24M: 30.8%
V136W: 5.01%
R74P: -8.19%
P83C: 2.01%
S171T: 55.9%
V137S: -8.46%
A84M: 53.4%
E14Q: 26.7%
R111I: 3.51%
S171N: 27.1%
D159I: -22.1%
L164N: -17.6%
I162P: 1.31%
E4K: 12.3%
I172A: 1.36%
M68D: -0.469%

Study 5
Molecule: B1 (IAA10)
Technique: two-hybrid
Reading: higher = firmer interaction
Endpoint: positive tests
B1: IAA10 (Arabidopsis thaliana, UniProt Q38828); chain MNGLQEVCSSSGSVMIGLPAEEDENAAHSSEDSSCPDESVSETELDLALGLSIGRRKVRSSLSSSSSSLTRESGTKRSADSSPAAASNATRQVAVGWPPLRTYRINSLVNQAKSLATEGGLSSGIQKETTKSVVVAAKNDDACFIKSSRTSMLVKVTMDGVIIGRKVDLNALDSYAALEKTLDLMFFQIPSPVTRSNTQGYKTIKETCTSKLLDGSSEYIITYQDKDGDWMLVGDVPWQMFLGSVTRLRIMKTSIGAGVGK
ARF10 575-693 (Arabidopsis thaliana, UniProt Q9SKN5); baseline: out of 4 tests: 1
ARF7 1030-1164 (Arabidopsis thaliana, UniProt P93022); baseline: out of 4 tests: 2
IAA11 (Arabidopsis thaliana, UniProt Q38829); weak activation fusion; baseline: out of 2 tests: 0
IAA30 (Arabidopsis thaliana, UniProt Q9M1R4); weak activation fusion; baseline: out of 4 tests: 2
ARF13 (Arabidopsis thaliana, UniProt Q9FX25); baseline: out of 2 tests: 0
IAA33 (Arabidopsis thaliana, UniProt Q9FKM7); baseline: out of 2 tests: 0

Excerpt of the above (study 1):
GTCGGTATCGACACTGGGGACGTGCTA: 4.67 z-score
TTCAGTTTTCCTATGTCATTGTGCTAG: 1.6 z-score
GACGATCTCAGACTGCAGACGTGCTAG: -0.495 z-score
GAAGATTTCAGTATCGAGACGTGCTAG: 2.44 z-score
GACGGTATCGGGACTGGGGGCGTGCTA: 5.15 z-score
TCAGTACTTTCTATCTCACTGTGCTAG: 2.45 z-score
GACGGACTGGGTTTCGCGACGTGCTAG: 0.153 z-score
TTCGGACTGCTACTGCTTTAGTGCTAG: -0.405 z-score
TTAGGTATCGACTGTCGGTTAGTGCTA: 6.03 z-score
GACGGTTCCCTTTGCCTGACGTGCTAG: 0.33 z-score
TTAGGACTGCTTATTCTTTAGTGCTAG: -0.0115 z-score
